Results gathered from unrelated publications.
Values joined by “and” are separate records of one study, mostly repeats; a detail may differ. Numbers after ± are the reported error.
FGFR3: Fibroblast growth factor receptor 3 (FGFR3, Homo sapiens, UniProt P22607)
Sequence of UniProt P22607 (whole entry, looked up): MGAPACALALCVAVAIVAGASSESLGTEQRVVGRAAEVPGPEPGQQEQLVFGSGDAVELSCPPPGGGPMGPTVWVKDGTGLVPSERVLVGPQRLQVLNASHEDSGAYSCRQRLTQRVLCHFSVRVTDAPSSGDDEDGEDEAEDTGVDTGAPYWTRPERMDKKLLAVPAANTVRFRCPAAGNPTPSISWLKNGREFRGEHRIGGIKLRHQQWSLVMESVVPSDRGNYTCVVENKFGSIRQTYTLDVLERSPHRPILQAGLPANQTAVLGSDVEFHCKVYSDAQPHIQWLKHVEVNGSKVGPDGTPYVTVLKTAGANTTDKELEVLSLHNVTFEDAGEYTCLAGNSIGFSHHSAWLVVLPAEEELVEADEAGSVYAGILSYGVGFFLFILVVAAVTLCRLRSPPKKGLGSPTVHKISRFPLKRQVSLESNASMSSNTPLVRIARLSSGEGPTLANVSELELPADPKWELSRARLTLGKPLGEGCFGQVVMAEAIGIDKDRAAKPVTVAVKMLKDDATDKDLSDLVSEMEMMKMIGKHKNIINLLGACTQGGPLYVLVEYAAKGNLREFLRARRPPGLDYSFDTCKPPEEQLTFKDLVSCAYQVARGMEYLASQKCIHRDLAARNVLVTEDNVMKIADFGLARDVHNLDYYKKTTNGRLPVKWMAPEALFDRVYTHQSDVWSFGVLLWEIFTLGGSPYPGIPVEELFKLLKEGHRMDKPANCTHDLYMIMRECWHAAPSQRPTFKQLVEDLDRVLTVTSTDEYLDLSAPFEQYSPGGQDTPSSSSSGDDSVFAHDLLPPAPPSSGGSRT
HCK: Tyrosine-protein kinase HCK (HCK, Homo sapiens, UniProt P08631)
Genome polyprotein NS3 helicase domain: Genome polyprotein, NS3 helicase domain (Hepatitis C virus genotype 1b, UniProt Q9WMX2)
Sequence of UniProt P80457 (whole entry, looked up): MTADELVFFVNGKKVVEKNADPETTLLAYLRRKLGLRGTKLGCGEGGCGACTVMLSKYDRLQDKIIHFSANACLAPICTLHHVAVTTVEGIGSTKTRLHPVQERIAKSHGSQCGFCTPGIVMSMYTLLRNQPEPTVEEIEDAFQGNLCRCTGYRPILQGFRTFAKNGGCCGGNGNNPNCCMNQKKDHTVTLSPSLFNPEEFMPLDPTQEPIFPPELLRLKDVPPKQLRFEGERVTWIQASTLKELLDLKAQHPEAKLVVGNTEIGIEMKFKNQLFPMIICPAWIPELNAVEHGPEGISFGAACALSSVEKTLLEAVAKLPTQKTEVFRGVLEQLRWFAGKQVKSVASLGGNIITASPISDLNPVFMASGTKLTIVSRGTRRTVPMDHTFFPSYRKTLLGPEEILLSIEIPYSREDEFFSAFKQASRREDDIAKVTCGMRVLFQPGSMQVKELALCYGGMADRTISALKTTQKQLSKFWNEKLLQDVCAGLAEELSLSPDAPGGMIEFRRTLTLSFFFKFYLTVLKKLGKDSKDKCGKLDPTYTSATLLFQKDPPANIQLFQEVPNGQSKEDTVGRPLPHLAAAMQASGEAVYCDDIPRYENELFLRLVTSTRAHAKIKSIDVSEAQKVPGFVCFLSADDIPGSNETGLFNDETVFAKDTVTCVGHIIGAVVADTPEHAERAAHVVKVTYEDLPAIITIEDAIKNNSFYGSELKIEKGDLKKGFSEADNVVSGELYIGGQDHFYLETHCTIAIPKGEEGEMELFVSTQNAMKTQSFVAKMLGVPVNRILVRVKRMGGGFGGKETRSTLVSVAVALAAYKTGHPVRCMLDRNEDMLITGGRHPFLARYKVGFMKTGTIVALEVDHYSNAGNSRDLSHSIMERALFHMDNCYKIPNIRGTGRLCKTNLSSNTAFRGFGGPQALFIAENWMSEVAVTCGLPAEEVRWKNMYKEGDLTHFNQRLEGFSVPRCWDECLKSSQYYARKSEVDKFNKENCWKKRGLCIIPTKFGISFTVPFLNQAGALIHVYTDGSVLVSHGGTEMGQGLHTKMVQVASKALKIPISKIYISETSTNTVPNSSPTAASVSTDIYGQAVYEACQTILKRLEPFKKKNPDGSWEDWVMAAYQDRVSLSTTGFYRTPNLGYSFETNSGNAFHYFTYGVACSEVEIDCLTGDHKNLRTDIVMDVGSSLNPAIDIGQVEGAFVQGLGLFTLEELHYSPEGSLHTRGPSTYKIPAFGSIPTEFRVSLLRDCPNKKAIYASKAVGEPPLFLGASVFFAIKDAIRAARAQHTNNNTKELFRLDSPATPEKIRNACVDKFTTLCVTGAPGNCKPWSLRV

| SMILES | target | assay | test system | conditions | IC50 |
| --- | --- | --- | --- | --- | --- |
| COc1ccc(/C=C/c2cc(O)cc(O)c2)cc1O | Xanthine dehydrogenase/oxidase (XDH, Bos taurus, UniProt P80457) | uric acid formation, inhibitor | – | pH 10.0, 25 °C, added: 200 µM xanthine | 7.9 ± 0.5 µM |
| COc1cc(N2CCN(C)CC2)ccc1Nc1ncc2c(n1)N(C)c1ccc(C)cc1C(=O)N2CC(F)(F)F | Serine/threonine-protein kinase DCLK1 (DCLK1, Homo sapiens, UniProt O15075) | binding, KINOMEscan | – | – | 2.7 µM |
| N=C(N)NCCC[C@H](NC(=O)[C@@H](Cc1ccccc1)NC(=O)[C@H](Cc1c[nH]cn1)NC(=O)CCc1cn(CC(=O)NCCC(=O)NCCCC(CCCNC(=O)CCNC(=O)Cn2cc(CCC(=O)N[C@@H](Cc3c[nH]cn3)C(=O)N[C@H](Cc3ccccc3)C(=O)N[C@@H](CCCNC(=N)N)C(=O)N[C@@H](Cc3c[nH]c4ccccc34)C(N)=O)nn2)(NC(=O)CNC(=O)CCNC(=O)Cn2cc(CCC(=O)N[C@@H](Cc3c[nH]cn3)C(=O)N[C@H](Cc3ccccc3)C(=O)N[C@@H](CCCNC(=N)N)C(=O)N[C@@H](Cc3c[nH]c4ccccc34)C(N)=O)nn2)C(=O)NCCC(N)=O)nn1)C(=O)N[C@@H](Cc1c[nH]c2ccccc12)C(N)=O (stereo partly drawn) | Melanocortin receptor 4 (MC4R, Homo sapiens, UniProt P32245) | binding, competitor, time-resolved fluorescence | – | added: Eu-NDP-α-MSH | ~0.072 µM |
| O=C1c2ccccc2OC(c2ccccc2)C1(Cl)[N+](=O)[O-] (stereo not drawn) | DNA (cytosine-5)-methyltransferase 1 (DNMT1, Homo sapiens, UniProt P26358) | enzyme activity, inhibitor, radiometric | – | – | 44.5 µM |
| CC(C)(C)C(=O)OCOP(=O)(CCc1cccc(Cn2c[n+](Cc3cc4cc(Cl)ccc4o3)c3c(=O)[nH]c(N)nc32)c1)OCOC(=O)C(C)(C)C | Eukaryotic translation initiation factor 4E (EIF4E, Homo sapiens, UniProt P06730) | – | human cells | 6 h treatment, read at 24 h | 22 µM |
| Cc1cc(-c2ccc(/N=N/c3ccc4c(S(=O)(=O)O)cc(S(=O)(=O)O)c(N)c4c3O)c(C)c2)ccc1/N=N/c1ccc2c(S(=O)(=O)O)cc(S(=O)(=O)O)c(N)c2c1O | Coagulation factor X (F10, Homo sapiens, UniProt P00742) | enzyme activity, inhibitor, absorbance | – | pH 7.4 | ~13 µM |
| C=C(C)C(=O)Nc1ccc(-c2c(-c3ccc(Oc4cccc(C)n4)cc3)c3c(N)ncnc3n2C)cc1 | FGFR3 | Caliper mobility shift | – | 30 min preincubation, added: 100 µM ATP | 0.18 µM |
| CC(=O)Oc1ccc(OC(C)=O)c2cc3c(cc12)CCCC3(C)C | DNA topoisomerase IB (Leishmania donovani, UniProt A0A3Q8IHS4+Q8WQM6) | DNA relaxation activity, inhibitor | – | added: supercoiled plasmid DNA | > 100 µM |
| CCOC(=O)N1CCC(Oc2nc3c(c(=O)n(C)c(=O)n3C)n2CCC(C)C)CC1 | 15-hydroxyprostaglandin dehydrogenase [NAD(+)] (HPGD, Homo sapiens, UniProt P15428) | – | – | – | > 57 µM |
| Cc1ccccc1-c1cc(N2CCOCC2)ccc1N(C)C(=O)C(C)(C)c1cc(C(F)(F)F)cc(C(F)(F)F)c1 | Substance-P receptor (TACR1, Homo sapiens, UniProt P25103) | IP1 accumulation, antagonist, HTRF | – | 90 min preincubation, added: substance P 10 nM | 0.135 µM |
| CC1OC(Oc2c(-c3ccc(O)cc3)oc3cc(O)cc(O)c3c2=O)C(OC(=O)C=Cc2ccc(O)cc2)C(O)C1OC(=O)C=Cc1ccc(O)cc1 (stereo not drawn) | C-C chemokine receptor type 6 (CCR6, Homo sapiens, UniProt P51684) | calcium flux, antagonist | 293FT GCaMP6 transfected | – | > 10 µM |
| CC(C)CCC[C@@H](C)[C@H]1CC[C@H]2[C@@H]3CC=C4C[C@@H](OS(=O)(=O)O)CC[C@]4(C)[C@H]3CC[C@]12C | Prothrombin (F2, Homo sapiens, UniProt P00734) | enzyme activity, inhibitor | – | 10 min, pH 7.4, 25 °C, 0.02% Tween 80, added: Spectrozyme TH | 229 ± 10.2 µM |
| C[C@@H](O)[C@H](NC(=O)NS(=O)(=O)OC[C@H]1O[C@@H](n2cnc3c(N)ncnc32)[C@H](O)[C@@H]1O)C(=O)O | tsaD, with TsaB and TsaE (Escherichia coli, UniProt P05852) | inhibitor | – | added: TC-AMP 10 µM, ATP 1 mM | 123 µM |
| CC(C)n1nc(-c2ccc3cc(OCc4ccccc4)ccc3c2)c2c(N)ncnc21 | Tyrosine-protein kinase HCK, SH2 (HCK, Homo sapiens, UniProt P08631, Q523E/Q524E/Q525I) | enzyme activity, inhibitor | – | – | < 0.02 µM |
| CC[C@H](C)[C@H](NC(=O)[C@H](CCCCN)NC(=O)[C@H](CC(C)C)NC(=O)CNC(=O)[C@@H]1CCCN1C(=O)[C@H](CC(N)=O)NC(=O)[C@H](CCCNC(=N)N)NC(=O)[C@H](CCCCN)NC(=O)[C@H](CCCCN)NC(=O)CNC(=O)[C@H](CCCCN)NC(=O)[C@H](CO)NC(=O)[C@H](C)NC(=O)[C@@H](N)Cc1ccc(O)cc1)C(=O)N1CCC[C@H]1C(=O)N[C@@H](CCCCN)C(=O)O | Mitogen-activated protein kinase 14 (Rattus norvegicus, UniProt P70618, D315S/D316E/E317A) | kinase activity, inhibitor, competitive kinase | – | – | 16 µM |
| CC(NC(=O)Cn1nc(C(F)(F)F)c2c1CCCC2)c1ccccc1 (stereo not drawn) | Trypanothione synthetase (Trypanosoma brucei, UniProt Q586P2) | enzyme activity, inhibitor | – | – | 5.6 µM |
| NC(=O)[C@@H]1CCNC(=O)[C@H](CCCNC(=O)c2cnccn2)NC(=O)[C@H](CC2CCCCC2)NC(=O)[C@H](C/C=C/c2ccccc2)NC(=O)/C=C\C(=O)N1 | HCK | enzyme activity, inhibitor, absorbance | – | – | > 100 µM |

| SMILES | target | assay | test system | conditions | IC50 |
| --- | --- | --- | --- | --- | --- |
| CCN(CC)c1ccc(-c2nc3ccc(C)c(S(=O)(=O)O)c3s2)cc1 | Genome polyprotein NS3 helicase domain | ATPase activity, inhibitor, malachite green | – | – | > 100 µM |
| Cc1ccc2nc(-c3ccc(N=NNc4ccc(-c5nc6ccc(C)c(S(=O)(=O)O)c6s5)cc4)cc3)sc2c1S(=O)(=O)O | Genome polyprotein NS3 helicase domain | DNA binding, fluorescence polarization | – | added: Cy5-dT15 DNA 5 nM | 2.8 ± 0.2 µM |
| CN(C)CCNC(=O)c1cccc2c(NCCCCc3c(N)nc(N)nc3N)c3ccccc3nc12 | Muscleblind-like protein 1, with (CUG)12 RNA (Homo sapiens, UniProt Q9NR56) | MBNL1-RNA binding, gel mobility shift | – | no tRNA, added: (CUG)12 RNA, 1000 nM MBNL1 | 118 ± 40 µM |
| O=C1/C=C/C(=O)N[C@@H](CC2CCCCC2)C(=O)N[C@@H](Cc2ccc(F)cc2)C(=O)N[C@@H](Cc2ccc([N+](=O)[O-])cc2)C(=O)NCCC[C@@H](C(=O)O)N1 | HCK | enzyme activity, inhibitor, absorbance | – | – | 8.4 µM |
| CN(C(=O)c1ccn2ncc(-c3ccc(C(N)=O)cc3)c2c1)c1ccc(C#N)cn1 | Alpha-2B adrenergic receptor (ADRA2B, Homo sapiens, UniProt P18089) | ligand displacement | – | – | > 30 µM |
| NC(=O)c1ccc[n+](C2OC(COP(=O)([O-])OP(=O)(O)OCC3OC(n4cnc5c(N)ncnc54)C(O)C3O)C(O)C2O)c1 (stereo not drawn) | NADH dehydrogenase [ubiquinone] flavoprotein 1, mitochondrial, complex I (NDUFV1, Bos taurus, UniProt P25708) | NADH:APAD+ transhydrogenase activity, inhibitor | – | pH 7.5, 32 °C, added: NADH 0.1 mM, APAD+ 1 mM | 700 µM |
| Cc1cc([N+](=O)[O-])cn(CC(=O)c2cc3cc(Br)ccc3[nH]2)c1=O | DNA repair protein RAD52 homolog, with RPA and ssDNA (RAD52, Homo sapiens, UniProt P43351) | inhibitor, FRET | – | – | 0.76 ± 0.05 µM |
| O=S(=O)(NCc1csc(-c2ccccc2)n1)c1ccc2ccccc2c1 | Trypanothione synthetase (Trypanosoma brucei, UniProt Q586P2) | enzyme activity, inhibitor | – | – | 2.4 µM |
| CCCCn1c(=S)[nH]c2cc3ccccc3cc2c1=O | Genome polyprotein, protease (Hepatitis C virus genotype 1b, UniProt O92972) | enzyme activity, inhibitor, FRET | – | – | 9.35 µM |
| O=C1Nc2ccc(-c3ccc(C(=O)N4CCCCC4)cc3)cc2/C1=C/c1ccc(N2CCNCC2)cc1 | FGFR3 | enzyme activity, inhibitor | – | – | 0.566 µM |
| Cc1ccc2oc(-c3c4c(N)n[nH]c(=O)c4nn3-c3ccc(NC(=O)/C=C/CN(C)C)cc3)c(C)c2c1 | Cyclin-dependent kinase 1 (CDK1, Homo sapiens, UniProt P06493) | enzyme activity, inhibitor, FRET | – | – | > 1 µM |
| COc1ccc(NC(=O)N2CCCN3CCC(c4ccc(C#Cc5ccccc5)cc4)C3C2)cc1 (stereo not drawn) | phenylalanine-tRNA ligase (Toxoplasma gondii, UniProt A0A125YPN6+S8EZ50) | aminoacylation, inhibitor, malachite green | – | added: 50 µM L-phenylalanine, 100 µM ATP | 0.42 µM |
| Cc1cc(NC(=O)C2CCN(C(=O)Cc3c(C)[nH]c4ccccc34)CC2)no1 | Trypanothione synthetase (Trypanosoma brucei brucei, UniProt Q586P2) | enzyme activity, BIOMOL Green phosphate release | – | 1 h preincubation | 26.4 µM and 26 µM |
| Cc1nn(-c2ccccc2)nc1CNS(=O)(=O)c1cccs1 | Trypanothione synthetase (Trypanosoma brucei, UniProt Q586P2) | enzyme activity, inhibitor | – | – | 8.5 µM |
| O=C(O)c1cc2cc(O)ccc2n1Cc1ccc(Cl)c(C(F)(F)F)c1 | Hepatic sodium/bile acid cotransporter (SLC10A1, Homo sapiens, UniProt Q14973) | transporter uptake, inhibitor | – | – | 19.5 µM |
| COC1CCC(Nc2nc(-c3nccn3C)nc3sc(-c4ccn(C)n4)c(-c4ccccc4)c23)C1 (stereo not drawn) | RHOA (Homo sapiens, UniProt P61586) | GTP binding, inhibitor, cell-free GTP competition | – | added: fluorescent GTP 100 nmol/L | 3 µM |

Repeated from above:
| SMILES | target | assay | test system | conditions | IC50 |
| --- | --- | --- | --- | --- | --- |
| COC1CCC(Nc2nc(-c3nccn3C)nc3sc(-c4ccn(C)n4)c(-c4ccccc4)c23)C1 (stereo not drawn) | RHOA (Homo sapiens, UniProt P61586) | GTP binding, inhibitor, cell-free GTP competition | – | added: fluorescent GTP 100 nmol/L | 3 µM |
| CC(NC(=O)Cn1nc(C(F)(F)F)c2c1CCCC2)c1ccccc1 (stereo not drawn) | Trypanothione synthetase (Trypanosoma brucei, UniProt Q586P2) | enzyme activity, inhibitor | – | – | 5.6 µM |
| CN(C)CCNC(=O)c1cccc2c(NCCCCc3c(N)nc(N)nc3N)c3ccccc3nc12 | Muscleblind-like protein 1, with (CUG)12 RNA (Homo sapiens, UniProt Q9NR56) | MBNL1-RNA binding, gel mobility shift | – | no tRNA, added: (CUG)12 RNA, 1000 nM MBNL1 | 118 ± 40 µM |
| O=C1c2ccccc2OC(c2ccccc2)C1(Cl)[N+](=O)[O-] (stereo not drawn) | DNA (cytosine-5)-methyltransferase 1 (DNMT1, Homo sapiens, UniProt P26358) | enzyme activity, inhibitor, radiometric | – | – | 44.5 µM |
| Cc1cc(-c2ccc(/N=N/c3ccc4c(S(=O)(=O)O)cc(S(=O)(=O)O)c(N)c4c3O)c(C)c2)ccc1/N=N/c1ccc2c(S(=O)(=O)O)cc(S(=O)(=O)O)c(N)c2c1O | Coagulation factor X (F10, Homo sapiens, UniProt P00742) | enzyme activity, inhibitor, absorbance | – | pH 7.4 | ~13 µM |
